Assay results from different studies.
Parts stem from different laboratories: compare values within a part only.

Sample 1 — method: DNA-protein interaction ELISA; form: double-stranded DNA, one strand shown; sample: in vitro, bacterial lysate; concentration: not given; notes: whole dsDNA probe, crude lysate protein; baseline: highest signal in screen; direction: higher = stronger binding
Target: Probable WRKY transcription factor 33, C-terminal DNA-binding domain (WRKY33, Arabidopsis thaliana, UniProt Q8S8P5, residues 346-449)
Construct (chain): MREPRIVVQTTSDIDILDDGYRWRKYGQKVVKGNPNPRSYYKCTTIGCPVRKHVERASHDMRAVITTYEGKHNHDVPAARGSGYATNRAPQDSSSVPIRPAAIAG
Oligonucleotide | relative absorbance
AAAAAACTGTCTGTCCTATATCACTTAAAA | 29.7 % of maximum
AAAAAACACTGCACTATTGGGAGTTCAAAA | 37.4 % of maximum
AAAAAAGACCGCAGCAAGAATTAAATAAAA | 79 % of maximum
AAAAAAATTGTATCATACTTCAGTTGAAAA | 27.5 % of maximum
AAAAAATCGGTACGCACCCCGGACTCAAAA | 54 % of maximum
AAAAAATTGCATTCCACCCTTAGGTTAAAA | 60.8 % of maximum

Sample 2 — method: protein binding microarray; form: double-stranded DNA, one strand shown; sample: in vitro; concentration: not given; baseline: not given; direction: higher = stronger binding
Target: Histone acetyltransferase KAT6A, winged helix 2, GST fusion (KAT6A, Homo sapiens, UniProt Q92794, residues 85-181)
Notes: 8-mer, flanks averaged, mean of 2 arrays, mostly near background
Construct (chain): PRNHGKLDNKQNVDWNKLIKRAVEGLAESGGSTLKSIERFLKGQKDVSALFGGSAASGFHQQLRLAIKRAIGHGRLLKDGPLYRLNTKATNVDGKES
Oligonucleotide | E-score
CTCACCAA | 0.127
AGGGCAGA | -0.0378
AATTCAGA | 0.0828
AGGTGAAG | -0.013
AACAAGGA | 0.133
ATTGCTTG | -0.0356
AGGCAGGA | -0.0457
AGAGTCAG | -0.105
AGGAATGG | -0.0566
AGAAACGC | 0.0643
AATAGTGA | -0.0338
GTACATAA | -0.0901
AAATTTAG | 0.0355
AAGCTGAG | 0.0289

Sample 3 — method: protein-binding microarray; form: double-stranded DNA, one strand shown; sample: in vitro; concentration: 250 nM; notes: 60-bp whole probe; with: salmon DNA 0.4 mg/ml; baseline: random background probes; direction: higher = stronger binding
Target: Interferon regulatory factor 5, full length, phosphomimetic (IRF5, Homo sapiens, UniProt Q13568-2, residues 1-514, K96S/S451D/S453D/S456D/S462D)
Constant ends, left off below: GCCTAGCAC … GTGCTAGGTCTTGATTCGCTTGACGCTGCTG
Oligonucleotide | log fluorescence [z-score]
TTAGGTCCCGGACTGGGTTA | -0.806
CAAATTGTCTCTGTCCCTGT | 0.254
GACGGACTGGGATTGGGGAC | -0.479
GACGGTCTCCTTTTCCTGCC | 0.136
TTAGGGCTCGGTCTCGGTTA | -0.282
TTGCCTTTTGCTTTACTGAT | 1.4
TCATCTTCCTTCATGGCACT | 0.565

Other studies, line by line
Substance | target | test | test system | conditions | how to read | measurement | result
PhoQ, residues 284 288 289 292 302 303 TLASMF | PhoP, residues 12 14 15 18 19 NHFRA (Escherichia coli, UniProt P23836) | Sort-seq, item: YFP reporter | E. coli | PhoQ-PhoP variant library, with: 10 µM Mg2+ | baseline: high Mg2+ state, higher = stronger signaling | fold induction | 0.841

A few entries again (sample 3):
Oligonucleotide | log fluorescence [z-score]
CAAATTGTCTCTGTCCCTGT | 0.254
TTGCCTTTTGCTTTACTGAT | 1.4
